Results pooled from the literature.
Each line is one published result; not all experiments were run side by side. Several values in a cell are separate wells, animals, samples, runs or records. Numbers after ± are the reported error. Values after ≈ are worked out from the molar mass of the structure shown.

Structure (SMILES)	assay	test system	setting	scale	quantity	result
CCn1c(SCC(=O)Nc2cccc(C(C)=O)c2)nnc1-c1ccncc1	–	–	–	–	pKa	3.12
C=CC(=O)N(C)CCOc1c(N)ncnc1-c1cc(F)cc(NC(=O)c2ccc(C3CC3)cc2F)c1C	–	human, whole blood	oral, 100 mg, single ascending dose	–	mean residence time	2.84 h
O=C(O)CSc1nnc(Br)n1-c1ccc(C2CC2)c2ccccc12	–	KM mouse, chronic hyperuricaemia model	dose not given, day 5	–	body weight	24.3 g and 29.1 g and 30.9 g and 28.3 g and 27.9 g and 24.1 g
Cc1cc(Nc2ccc(S(F)(F)(F)(F)F)cc2)n2nc(C(C)(F)F)nc2n1	–	Plasmodium vivax malaria patients	oral, 400 mg	–	adverse event sinus bradycardia	0%
COc1cc2[nH]c(C)c(-c3ccc(C(C)=O)cc3)c(=O)c2cc1Cl	–	PAMPA	pH 7.4	–	Papp	< 5 ×10⁻⁶ cm/s
N#CC(Cc1ccc(O)cc1)c1ccc(O)cc1 (stereo not drawn)	–	rat, Long-Evans, female, serum	subcutaneous, 2 mg/kg single dose	–	aglycone share of Cmax	36%
C=CC(=O)Nc1cc(Nc2nccc(Nc3cc(Cl)c(F)cc3C(C)(C)O)n2)c(OC)cc1N1CC[C@@H](N(C)C)C1	two-compartment PK model	mouse	dose not given	–	central volume of distribution	2.2 L
CCC(CC)C(=O)Oc1cccc(C(O)CCN)c1.O=CO (stereo not drawn)	scotopic ERG	BALB/cJ mice	intraperitoneal, 10 mg/kg, 1 h dark adaptation, together with: 10,000 lx photobleach, 10 min	–	ERG a-wave amplitude	32 µV and 11 µV and 28 µV and 25 µV and 7 µV and 15 µV
CC/C(=C(\c1ccccc1)c1ccc(OCCN(C)C)cc1)c1ccccc1	–	male Hartley guinea pigs, anaesthetized	intravenous, 30 mg/kg group, baseline before infusion	–	mean blood pressure	33 ± 0.3 mmHg
O=C(O)CCCOc1ccc([18F])cc1-c1cc(-c2ccccc2C(F)(F)F)n(-c2ccccc2)n1	gamma counting	male ddY mice, spleen	intravenous, 2.1 MBq, 15 min	–	radioactivity uptake	0.2 ± 0.05 SUV
O=C(Nc1nc2cccc(-c3ccc(CN4CCS(=O)(=O)CC4)cc3)n2n1)C1CC1	measured: arthralgia	human rheumatoid arthritis patients	oral, 30 mg once daily, 4 weeks, regardless of relatedness	–	treatment-emergent adverse events	0%
CNC(=O)c1cccc(-c2ccc([C@@H](O)[C@H]3O[C@H](CO)[C@@H](O)[C@H](O)[C@@H]3O)c(C)c2)c1	–	male Sprague-Dawley rat, plasma	intravenous, 3 mg/kg, group mean	–	C0	4920 ng/mL
CO[C@H]1C[C@@H]2CC[C@@H](C)[C@@](O)(O2)C(=O)C(=O)N2CCCC[C@H]2C(=O)O[C@H]([C@H](C)C[C@@H]2CC[C@@H](O)[C@H](OC)C2)CC(=O)[C@H](C)/C=C(\C)[C@@H](O)[C@@H](OC)C(=O)[C@H](C)C[C@H](C)/C=C/C=C/C=C/1C	–	healthy adult horses	oral, 0.06 mg/kg, 12 h	–	rectal temperature	37.8 ± 0.6 °C
CCn1c(=O)c(-c2cc(NC(=O)Nc3ccccc3)c(F)cc2Br)cc2cnc(NC)cc21	measured: nervous system disorders	human, severe hepatic impairment	oral, 50 mg single dose	–	participants with drug-related TEAE	0%
Cc1cc(-c2nccc3c2ccn3CC(=O)Nc2ccc(-c3cnccn3)cn2)ccn1	–	healthy human volunteers	oral, 40 mg single dose, single ascending dose	–	upper abdominal pain incidence	16.7%
COc1cc2c(Nc3ccc(Cl)c(Cl)c3F)ncnc2cc1OC[C@@H]1C[C@@H]2CN(C)C[C@@H]2C1	–	FVB wild-type mice, both sexes, brain	intraperitoneal infusion (osmotic pump), dose not given, 48 h	–	unbound brain concentration	1.59 ng/g
CCN1/C(=C/C(C)=O)Sc2ccc(F)cc21	–	cynomolgus monkey	oral, 100 mg/kg, 24 h post-dose	–	QTc interval (Bazett)	328 ± 15 ms
Cc1c(Cl)c(C)[n+]([O-])c(Cl)c1-c1noc(-c2cc(O)c(O)c([N+](=O)[O-])c2)n1	measured: Bloating	healthy Caucasian subjects	oral, 25 mg, 4 days	–	adverse drug reaction incidence	0%
CC(=O)N[C@@H](CS)C(=O)O	–	human	intravenous	–	permeability-surface area product	7.52 to 20.1 mL/s/mL

Structure (SMILES)	assay	test system	setting	scale	quantity	result
CNC(=O)c1ccccc1Nc1cc(Nc2ccc(N3CCOCC3)cc2OC)ncc1C(F)(F)F	–	Labrafac	24 h, 25 °C	–	solubility	2160 µg/mL (≈ 4.31 mM)
CCC(=O)N(CCC(c1ccc2c(c1)OCO2)c1ccccc1OC)Cc1ccccc1 (stereo not drawn)	–	female athymic nude mouse, blood	i.p., 60 mg/kg twice daily, 14 days, group mean	–	AST	77.5 U/L
Cc1cc(Nc2cc3ncccc3c(N[C@@H]3C[C@H]4CC[C@@H](C3)N4CCC#N)n2)n[nH]1	–	healthy human subjects	oral, 1000 mg, 2 weeks, single ascending dose	–	pruritus incidence	0%
CNCCOC12CC3(C)CC(C)(CC(Cn4ncc(-c5ccc(N6CCc7cccc(C(=O)Nc8nc9ccccc9s8)c7C6)nc5C(=O)O)c4C)(C3)C1)C2	–	beagle dog, male, anaesthetised	intravenous bolus, 0.03 mg/kg, 90 min	relative to: baseline	QTcV interval change	13 ms
Cl.[2H]C([2H])([2H])CC(=O)c1cnc(NC(=O)C2CC2)cc1Nc1cccc(-c2ncn(C([2H])([2H])[2H])n2)c1OC	geometric mean	human	oral, 10 mg once daily, day 1, fasted, liquid, multiple dose	–	Cmax	98.1 ng/mL
CN1C(C(=O)Nc2ccc(F)cn2)=C(O)c2ccccc2S1(=O)=O	–	–	–	–	pKa (acidic)	4.5
COc1c(N2C[C@@H]3CCCN[C@@H]3C2)c(F)cc2c(=O)c(C(=O)O)cn(C3CC3)c12	–	male Hartley guinea pigs, anaesthetized	intravenous, 5 mg/kg over 10 min, after infusion	–	mean blood pressure	31 ± 0.2 mmHg
O=C1NCCc2nc(OCc3cccc(F)c3)ccc21	measured: loss of Righting	Sprague-Dawley rat male	oral, 100 mg/kg, 4 h	direction not given	Irwin test score	0
C[C@H]1Oc2cc(cnc2N)-c2c(nn(C)c2C#N)CN(C)C(=O)c2ccc(F)cc21	–	human patients, plasma	oral, cycle 2 day 1, geometric mean, together with: avelumab	–	Tlast	17 h
Cc1nc(-c2ccc(OCC(C)C)c(C#N)c2)sc1C(=O)O	–	healthy Chinese subjects	oral, 40 mg, fed	–	subjects with hypertriglyceridaemia	5%
N#Cc1ccc2c(c1)[C@H]1CCCN(C(=O)c3ccc4[nH]cnc4c3)[C@H]1C2	–	human, female	40 mg, end of trial	–	androstenedione level	4.3 nmol/L
Cc1c(Br)cc(NC(=O)C(c2ccccc2)S(=O)(=O)O)cc1Br (stereo not drawn)	–	CD-1 mice, whole blood	intravenous, 2 mg/kg	–	C0	4940 nM
Cc1cc(C(=O)NC(C)(C)COc2cccc3c2C(N)=NS(=O)(=O)N3)cc(C)n1	LC-MS metabolite profiling	Sprague-Dawley rat, both sexes, plasma	oral, 100 mg/kg of parent drug, 24 (unit not given)	higher = more metabolite	plasma peak area	76700 a.u.
C[C@@H]1CN(c2c(F)c(N)c3c(=O)c(C(=O)O)cn(C4CC4)c3c2F)C[C@H](C)N1	–	male Hartley guinea pigs, anaesthetized	intravenous, 30 mg/kg group, baseline before infusion	–	mean blood pressure	40 ± 0.3 mmHg
O=C(c1cccnc1-c1ccncc1)N1CCC(O)(Cc2ccccc2)CC1	–	healthy Japanese adults, plasma	oral, 600 mg single dose	–	AUClast/dose	6.43 ng·h/mL/mg
C=CC(=O)N1CCC(c2ccc(C(N)=O)c(-c3ccc(Oc4ccccc4)cc3)n2)CC1	serious adverse event Asthenia	patients with relapsed/refractory MCL	oral	–	incidence	0.9%
CC(C)[C@@H](CS(=O)(=O)C(C)C)N1C(=O)[C@@](C)(CC(=O)O)C[C@H](c2cccc(Cl)c2)[C@H]1c1ccc(Cl)cc1	–	FVB mice Abcg2 knockout, spinal cord	intravenous, 20 mg/kg	–	AUC(0-inf)	56.9 ± 4.5 ng·h/mL
CC(C)(C)c1ccc(C(O)CCCN2CCC(C(O)(c3ccccc3)c3ccccc3)CC2)cc1 (stereo not drawn)	–	male Hartley guinea pigs, anaesthetized	intravenous, 3 mg/kg over 10 min, after infusion	–	mean blood pressure	37 ± 0.2 mmHg
CC(C)(C(=O)N1CCOc2c(C#N)cncc2C1)C(F)F	measured: Arthralgia	human	oral, 20 mg twice daily, 14 days, multiple ascending dose	–	subjects with adverse event	0%

Structure (SMILES)	assay	test system	setting	scale	quantity	result
O=C(O)CCC(=O)O.[2H]C([2H])([2H])Oc1cc(C)c2[nH]ccc2c1CN1CC[C@@H](C2CC2)C[C@H]1c1ccc(C(=O)O)cc1	multiple ascending dose	healthy Chinese subjects	100 mg twice daily	–	subjects with hyperuricaemia	0%
CCCCOC(=O)N1CCN(C(=O)[C@H](CP(=O)(O)O)NC(=O)c2cc(N3CC[C@H](OC)C3)nc(-c3ccccc3)n2)CC1	measured: Chloride	human, blood	16 mg, 24 h	–	change from baseline	0.3 ± 2.2 mmol/L
CC(=O)NCCc1c[nH]c2ccc(O)cc12	sulfation, substrate	pooled human kidney cytosol	50 µM, 30 min, together with: 50 mM NaF	–	specific activity	3.56 ± 0.13 pmol/min/mg
C=CC(=O)N1CCC(Oc2cc3c(Nc4ccc(Cl)c(Cl)c4F)ncnc3cc2OC)CC1	–	Sprague-Dawley rat, male, plasma	oral, 2 mg/kg, together with: vehicle pretreatment	–	CL/F	8.83 ± 1.17 mL/min/kg
COc1ccc2c(c1)CCc1c(C(=O)NCCc3nc4cc(C)ccc4[nH]3)n[nH]c1-2	–	sheep erythrocytes	1 h, pH 7.5	–	maximum haemolysis	29.9%
Cn1c(C(F)(F)F)cc(=O)n(-c2cc(Oc3cccnc3OCC(=O)O)c(Cl)cc2F)c1=O	–	beagle dog, male, plasma	oral capsule, 300 mg/kg/day epyrifenacil, week 13, 90-day study	–	Tmax	2.5 h
CCOc1c([C@H](C)n2nc(C)c3c(N)ncnc32)cc(Cl)c(F)c1[C@@H]1CNC(=O)C1	–	previously treated B-cell malignancy patients	oral, up to 15 mg once daily, cycle 1 day 15, within ± except three observations	–	LSM change in PR interval	≤ 10 ms
COc1ccc2nc(NC(=O)c3cc(=O)c4ccccc4o3)sc2c1	–	sheep erythrocytes	1 h, pH 7.5	–	maximum haemolysis	8.3%
C=CC(=O)Nc1cc(Nc2nccc(-c3cn(C)c4ccccc34)n2)c(OC)cc1N(C)CCN(C)C	–	human patients	oral, cycle 3 day 1, monotherapy, mean	–	CLss/F	14.5 L/h
C[C@@H]1CCO[C@H]2Cn3cc(C(=O)NCc4ccc(F)cc4F)c(=O)c(O)c3C(=O)N12	–	human paediatric patients, weight sample C to under sample D kg, plasma	oral, 16 mg granules, 24 h, steady state, geometric mean, population PK post-hoc, N 2	–	trough concentration (C24)	601 ng/mL
CC(C)c1ncc(C(=O)N2CCOC3(CCN(Cc4ccc(F)c(CCNC[C@H](O)c5ccc(O)c6[nH]c(=O)sc56)c4)CC3)C2)s1	–	healthy human volunteers, plasma	inhaled, dose not given	–	Clast	0.006 nM
COc1cc2c3c(n(CCCN4CCOCC4)c(=O)c2cc1OC)-c1cc2c(cc1C3=O)OCO2	–	beagle dog, female, plasma	intravenous infusion, 215 mg/m^2, 1 h infusion	–	Cmax	1090 ng/mL
C[C@@H](N)C1CCN(S(=O)(=O)c2cccc3cnccc23)CC1	–	healthy volunteers	150 mg, fasted	–	participants with headache	0%
CC(C)n1c(Nc2cccnc2)nc2cnc(Nc3ccc(N4CCN(C)CC4)cc3)nc21	measured: nodal rhythm	healthy male subjects	oral, 100 mg, study, together with: gemfibrozil	–	subjects with adverse event	0%
CCN(CCO)CCCC(C)Nc1ccnc2cc(Cl)ccc12 (stereo not drawn)	–	human patient	200 mg, steady state	–	CLss/F	23.9 L/h and 14.3 L/h and 9.02 L/h
O=C(O)CNC(=O)c1ncc(-c2ccc(Cl)cc2)cc1O	–	–	–	–	pKa (basic)	< 2
Cc1ccc([C@@H]2O[C@H](CO)[C@@H](O)[C@H](O)[C@H]2O)cc1Cc1ccc(-c2ccc(F)cc2)s1	–	Japanese type 2 diabetes patients	25 mg, day 2, 24 h urine collection	relative to: baseline	urinary chloride excretion change	-54 mEq
CNC(=O)c1ccc(-c2cnc3ncc(Cc4ccc5ncccc5c4)n3n2)cc1F	measured: Hypoalbuminemia, all grades	cancer patients	oral, 600 mg twice daily, expansion cohort, any causality	–	patients with adverse event	3%
[18F]c1ccc(-c2ccc3c(c2)[nH]c2ccncc23)cn1	ex vivo biodistribution	APP/PS1 mouse, AD model, bone	intravenous, 30 min	–	SUV	0.628 ± 0.146

For quick reference, copied from above:
Structure (SMILES)	assay	test system	setting	scale	quantity	result
COc1ccc2c(c1)CCc1c(C(=O)NCCc3nc4cc(C)ccc4[nH]3)n[nH]c1-2	–	sheep erythrocytes	1 h, pH 7.5	–	maximum haemolysis	29.9%
Cn1c(C(F)(F)F)cc(=O)n(-c2cc(Oc3cccnc3OCC(=O)O)c(Cl)cc2F)c1=O	–	beagle dog, male, plasma	oral capsule, 300 mg/kg/day epyrifenacil, week 13, 90-day study	–	Tmax	2.5 h
CCOc1c([C@H](C)n2nc(C)c3c(N)ncnc32)cc(Cl)c(F)c1[C@@H]1CNC(=O)C1	–	previously treated B-cell malignancy patients	oral, up to 15 mg once daily, cycle 1 day 15, within ± except three observations	–	LSM change in PR interval	≤ 10 ms
COc1ccc2nc(NC(=O)c3cc(=O)c4ccccc4o3)sc2c1	–	sheep erythrocytes	1 h, pH 7.5	–	maximum haemolysis	8.3%
C=CC(=O)Nc1cc(Nc2nccc(-c3cn(C)c4ccccc34)n2)c(OC)cc1N(C)CCN(C)C	–	human patients	oral, cycle 3 day 1, monotherapy, mean	–	CLss/F	14.5 L/h
C[C@@H]1CCO[C@H]2Cn3cc(C(=O)NCc4ccc(F)cc4F)c(=O)c(O)c3C(=O)N12	–	human paediatric patients, weight sample C to under sample D kg, plasma	oral, 16 mg granules, 24 h, steady state, geometric mean, population PK post-hoc, N 2	–	trough concentration (C24)	601 ng/mL
CC(C)c1ncc(C(=O)N2CCOC3(CCN(Cc4ccc(F)c(CCNC[C@H](O)c5ccc(O)c6[nH]c(=O)sc56)c4)CC3)C2)s1	–	healthy human volunteers, plasma	inhaled, dose not given	–	Clast	0.006 nM
COc1cc2c3c(n(CCCN4CCOCC4)c(=O)c2cc1OC)-c1cc2c(cc1C3=O)OCO2	–	beagle dog, female, plasma	intravenous infusion, 215 mg/m^2, 1 h infusion	–	Cmax	1090 ng/mL
